Assay results pooled from the literature.
Each numbered part is a random draw from the data of one study; scales do not carry over between parts. Changes are numbered by the printed parent chain.

Set 1
Target: CCND2, cyclin fold, Cln2 fusion (human)
Method: yeast growth competition, sequencing
Matrix: yeast
Setting: strong parent motif
Relative to: not given
Reading: higher = stronger binding
Starting sequence: E2F1 docking peptide (human); PPVKRRLDFETDH; partner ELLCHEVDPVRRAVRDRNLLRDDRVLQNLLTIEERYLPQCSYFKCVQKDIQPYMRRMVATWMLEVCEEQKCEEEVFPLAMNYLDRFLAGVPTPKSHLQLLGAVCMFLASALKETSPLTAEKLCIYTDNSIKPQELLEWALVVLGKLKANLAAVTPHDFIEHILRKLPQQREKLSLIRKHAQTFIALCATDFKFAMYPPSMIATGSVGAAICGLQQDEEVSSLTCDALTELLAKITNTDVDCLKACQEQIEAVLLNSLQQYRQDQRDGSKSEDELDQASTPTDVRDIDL
Change	normalised enrichment score
PPVKLRLDFETDH [R5L]	0.206
PPVKRRLDFETIH [D12I]	1.75
PPVERRLDFETDH [K4E]	0.665
PPVKRTLDFETDH [R6T]	0.64
PPGKRRLDFETDH [V3G]	0.603
PPVKRRLDFGTDH [E10G]	2.12
PPVKRQLDFETDH [R6Q]	0.746
PPVKRRLDFWTDH [E10W]	0.272
PPVKRRLDFETGH [D12G]	1.97
PPVKRRLDFEVDH [T11V]	1.66
PPFKRRLDFETDH [V3F]	-0.161
PPVKDRLDFETDH [R5D]	0.737
PLVKRRLDFETDH [P2L]	1
PPVKRRLDTETDH [F9T]	0.271
PPVKRRLYFETDH [D8Y]	1.2

Set 2
Target: ATF3, bZIP domain (human)
Method: DHFR protein complementation
Matrix: yeast
Setting: single substitutions, most at no-binding floor
Relative to: wild-type JUN-FOS pair
Reading: higher = stronger binding
Starting sequence: JUN, bZIP domain (human); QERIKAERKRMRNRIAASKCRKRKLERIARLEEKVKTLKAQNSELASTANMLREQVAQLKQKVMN; partner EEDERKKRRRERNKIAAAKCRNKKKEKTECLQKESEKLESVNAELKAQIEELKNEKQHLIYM
Change	binding fitness [natural log]
L45M	-0.44
L59W	-0.813
A46M	0.0305
V56L	-0.467
A57E	-0.0296
A40G	-0.339
S47T	-0.126
R53S	-0.259
T37L	-0.0134
A40Q	-0.079
E54K	-0.281
V56T	-0.799

Set 3
Target: Sal-like protein 4, full length isoform B (SALL4, Homo sapiens, UniProt Q9UJQ4-2, residues 1-616)
Method: universal PBM
Form: double-stranded DNA, one strand shown
Matrix: in vitro
Concentration: not given
Setting: 8-mer, flanks averaged, mean of replicates
Reading: higher = stronger binding
Construct (chain): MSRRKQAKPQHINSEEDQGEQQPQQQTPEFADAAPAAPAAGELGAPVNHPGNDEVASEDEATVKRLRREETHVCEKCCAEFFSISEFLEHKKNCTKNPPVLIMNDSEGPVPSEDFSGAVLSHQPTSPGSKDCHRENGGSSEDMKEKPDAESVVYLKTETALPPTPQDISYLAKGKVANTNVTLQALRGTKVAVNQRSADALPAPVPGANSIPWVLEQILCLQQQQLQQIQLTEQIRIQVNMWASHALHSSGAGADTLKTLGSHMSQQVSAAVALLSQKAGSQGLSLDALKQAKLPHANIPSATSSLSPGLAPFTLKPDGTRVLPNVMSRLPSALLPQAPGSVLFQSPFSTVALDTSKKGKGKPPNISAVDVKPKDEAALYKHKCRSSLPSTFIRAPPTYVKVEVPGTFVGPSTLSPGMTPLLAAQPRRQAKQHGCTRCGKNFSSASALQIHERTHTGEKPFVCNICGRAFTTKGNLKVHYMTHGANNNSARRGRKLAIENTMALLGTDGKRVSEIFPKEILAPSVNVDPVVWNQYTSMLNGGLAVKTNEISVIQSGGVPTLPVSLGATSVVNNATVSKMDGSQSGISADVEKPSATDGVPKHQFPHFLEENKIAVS
Sequence	E-score
GCGGCACC	-0.295
AAGGAGAT	0.0377
ATGGGCAC	-0.0239
ATTTCGCC	0.0457
AACAAGCG	0.0747
AGATTCGG	0.00837
ACTAGTTA	0.245
ACTCCCTC	-0.299
ATTCCTTG	0.0306
ATAAGGTA	0.244
GGCACCTA	-0.232
CGATGTAA	0.105
CCGGATAG	-0.0985
AAGGTAAG	0.0966

Set 4
Target: Histone acetyltransferase KAT6A, both winged helices, GST fusion (KAT6A, Homo sapiens, UniProt Q92794, residues 1-181)
Method: protein binding microarray
Form: double-stranded DNA, one strand shown
Matrix: in vitro
Concentration: not given
Setting: 8-mer, flanks averaged, mean of 2 arrays, mostly near background
Relative to: not given
Reading: higher = stronger binding
Construct (chain): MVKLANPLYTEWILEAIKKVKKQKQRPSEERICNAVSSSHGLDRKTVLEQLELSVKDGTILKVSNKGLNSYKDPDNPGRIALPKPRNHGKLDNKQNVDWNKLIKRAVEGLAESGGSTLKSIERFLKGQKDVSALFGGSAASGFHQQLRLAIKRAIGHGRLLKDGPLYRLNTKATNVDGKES
Sequence	E-score
ACACGGCT	0.241
GCCCATGA	-0.00334
AAGATGAA	-0.161
CAAAATGG	-0.0732
ATCTCCTG	-0.201
ACTAATCT	-0.168
CGGTACTC	0.144
CGTCACCA	-0.0262
CCCTCTCC	-0.209
GTACCCTA	-0.227
AGTGGACG	-0.0653
GACAGGCC	0.0182
CGTATCCC	0.191
TCCCAGCA	-0.14
AATTTACA	-0.177
AAAATATG	-0.202
ACCTTCAC	-0.129
AATATGCC	-0.0686
CTCACTAA	-0.145
TGTGTCAA	-0.0292
GCCTGACA	-0.0898
CTCTGGTC	-0.00194
ACTGTGTG	-0.154
CGCTCATC	0.227
TGAGCAAA	-0.112

Set 5
Target: RNA binding protein fox-1 homolog 2, RRM domain, GST-SBP tag (RBFOX2, Homo sapiens, UniProt O43251-10, residues 100-194)
Method: RNA Bind-n-Seq
Form: RNA
Matrix: in vitro
Concentration: 365 nM
Setting: natural RNA segment, single round, ends assumed
Relative to: no-protein control
Reading: higher = stronger binding
All sequences stand within: GGGAGUUCUACAGUCCGACGAUC … UGGAAUUCUCGGGUGCCAA
Construct (chain): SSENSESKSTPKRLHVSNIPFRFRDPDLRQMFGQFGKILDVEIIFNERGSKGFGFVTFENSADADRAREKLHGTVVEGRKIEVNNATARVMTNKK
Sequence	RBNS enrichment (R)
CUGAAGUUACCCUCUGAAAAAUAUUUUGUCUCUCUGACUUGAUUUCUAUAAAUGCUUUUAAAAACAAGUGAAGCCCCUCUUUAUUUCAUUUUGUGUUAUUGUGAUUGCUG	0.907
UGCCUGUGACUCUUUGCACACUCUGUACUGAGUUUGGUGCUCCACCCAUUCACUGGGGUCAGGUGGCAGUUGACAUCUUGGUUAUAAGUAUGCAUGCAGGUAACAAGAGU	6.33
GAUUUCCAGGAUGAGUCAGGGUGUGCUGGGCCCUCCAGGAUUUGAGAGAGGGAGAGAAGGCCCUUGCCACGUCCGGGGUGCAGGGUCUACCCACAGAACACUGUGAGUGG	0.403
UCUUUGCACCAGAGAGCAUUUUGCAUUCUGGACUUGAUAGACGCACCCCUUUUUAUACAGAUGUUUUUAUAUGUGUGUGCUCAGGCCUGCCGAGAUGCAGGGCAAAGUUG	0.968
UUGGCAGUAAAUUGGCACCGUGUCACACUGUUUCCUGGGAUUCAAGUAUGCAACCAGAACACAGGAGAAGAAAAGCUCCAGGAUCCCUGUCCCCAUCUGUCCUCUUGAUG	2.51
UGAGGAUCUCAAUUCAUACAGGUGAAAAUCCUUAAAGGACUCUAUGAUUUAAACUCUGGAGUCAAAGCUAGUGUGUGUGUCUGUCUUUGCUCCUGCUAAGACAUGGAAAC	0.35
CCUUGGCCACCAUACGGGCCAUCCUCAGUGAGGCAGCCCCCCAUAGGCUUCCGCCAAGCUCUGGUCCCGAAGAGGCUGUGCGAGCCCUUCCCGGCCCUCCCCAGGGCCCC	0.234
GAGCGUUGUCAAUACCACUUAUAAAGCCAAGAAUUGCCAUGAUUUAAGACUAAGAUCUGUCUUUUUGGUGACUAACACUUCAGUUCUUUCAACUCCUAUUAAUACCCAUA	0.567
UACAUUUUCCUGCUGGUAAAAGGAGAAACUGAGAGGUGUCCUGCAGACCGGCUGACCACUCCUUUUGGAGACGGCAGGAGGCCUGAGCGAUCCGUACUCAGAACGUCCAG	0.238
UUGGUUUUUUAAAAUCUGUACAGCAAGAGCAACUUUUUCUGUCAAAUAAAAAUGAGAAAUGCAGGAACUGGGUCUGUAGACUGUUUAUUAAAGGUGUGUUAAGGGGGCAG	1.4
CGCAGUUUCCAUGUGUUUCAGGAUCUUCGGGCUGUCGUUAGACAGGUUAAUGAAGAACACUUCUCAACAGUUUCCUUUUUGUUUUCCUUUAUAAUUCACUAAAAUAAAGC	0.335
CUCCAUCCGAGUUUCCUCCUUCGUCCCCUGAUGAAGAGCCCCCUGAGAAUUGACAAGGAUGUAGAACAAGUGUUCCUUUCCAUCACACCUGCCAAGGGCAAAGCUACCUG	0.371

Set 6
Target: PABPC1L2, full length, GST fusion (mouse, UniProt A0ABA7IW68)
Method: RNAcompete
Form: RNA
Matrix: in vitro
Concentration: 20 nM
Setting: 7-mer, probes averaged, single round
Relative to: mean of 7-mers
Reading: higher = stronger binding
Construct (chain): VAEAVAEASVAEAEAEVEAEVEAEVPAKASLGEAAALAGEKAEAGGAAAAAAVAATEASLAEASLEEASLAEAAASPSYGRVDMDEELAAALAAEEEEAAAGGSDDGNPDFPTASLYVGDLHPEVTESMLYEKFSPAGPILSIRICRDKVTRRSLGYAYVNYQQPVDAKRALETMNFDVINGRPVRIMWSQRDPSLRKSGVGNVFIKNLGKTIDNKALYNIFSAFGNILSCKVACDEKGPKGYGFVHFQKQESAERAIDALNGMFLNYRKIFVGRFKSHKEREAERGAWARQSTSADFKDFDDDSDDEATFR
Sequence	7-mer Z-score
AAUCUCA	0.0388
AGAAGGG	0.488
UCGGUCC	-0.235
UCGUGAA	-0.253
CGCCUAG	-0.262
UCGAAGC	-0.11
UGCGCAC	-0.151
UAACACA	0.0623
CAGAAAA	5.19
AGCAGGU	0.0152
GGCAAUU	0.00979
AUGAAUC	-0.195
CUAGCCC	-0.235
GAUUAUA	-0.117
UCGCACG	-0.362
GCGGUAU	-0.0101
UUGGAGG	0.126
CUUCUUG	-0.4
AGAAAAC	3.12
UACAAAC	1.04
GGUGAGC	-0.0953

Set 7
Target: Ras GTPase-activating protein-binding protein 1, full length (G3BP1, Homo sapiens, UniProt Q13283)
UniProt Q13283, sequence (whole entry, looked up): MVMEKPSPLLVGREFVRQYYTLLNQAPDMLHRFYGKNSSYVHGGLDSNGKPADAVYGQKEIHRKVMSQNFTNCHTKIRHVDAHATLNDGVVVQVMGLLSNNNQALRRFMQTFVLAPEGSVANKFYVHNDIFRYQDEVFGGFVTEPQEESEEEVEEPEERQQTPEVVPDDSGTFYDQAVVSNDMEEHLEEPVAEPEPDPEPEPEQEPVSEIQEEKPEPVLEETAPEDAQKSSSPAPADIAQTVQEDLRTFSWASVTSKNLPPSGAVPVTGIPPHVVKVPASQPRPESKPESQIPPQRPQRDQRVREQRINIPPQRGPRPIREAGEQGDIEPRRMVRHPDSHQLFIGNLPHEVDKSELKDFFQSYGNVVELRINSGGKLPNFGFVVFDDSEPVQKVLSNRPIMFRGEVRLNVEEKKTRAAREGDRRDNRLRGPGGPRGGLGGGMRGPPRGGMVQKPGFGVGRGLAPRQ
Method: RNA Bind-n-Seq
Form: RNA
Matrix: in vitro
Concentration: 200 nM
Setting: whole 134-nt RNA, ends assumed
Together with: 150 mM LiCl
Relative to: input library
Reading: higher = stronger binding
Library: 7-deaza-guanosine replaces G
All sequences stand within: GGGAGUUCUACAGUCCGACGAUC … UGGAAUUCUCGGGUGUCAAGG
Sequence	log2 enrichment
CACAGACAACACGCACCCACACAGACACAGAGUGAAGGGGUUGGGAUGGGGACAGGGUGCACAGCAGGGCGGGGUAGGACCCCAGCCCCU	0.17
CUGUGCUACACAUCGUAUGUACCGAAUCGGGCCCCCCCGGCCCCCCCGGGGCCCCCCCGGGAAAGUAUUAUGUUACGCCGUUCGGAUCUG	0.425
UGGGAGGUGGAUUUUGUUUAUGUUUUUAGCUCAUUUCCAGGGGUGGGAAUUUUUUUUUAAUAUGUGUCAUGAAUAAAGUUGUUUUUGAAA	-0.134
GUGCUACACAUCGUAUGUACCGAAUCGGGGUUUUUUUGGGGAAAAAAAGGGGUUUUUUUGGGGAAAGUAUUAUGUUACGCCGUUCGGAUC	-1.71
CACAGACAACACGCACCCACACAGACAGAGAGGGAAGGGGUUGGGAUGGGGACAGGGUGCACAGCAGGGCGGGGUAGGACCCCAGCCCCU	0.343
UGGCUGCAGGCGCACCCCGGCAGGAUUUUGCCUCCGCUGUCGCCCCCGCAGCACCGCUACUCGGAGGGCGAGCGGACCUCCCUGGAGAAG	-1.52
CAAGUCCUGUGCUACACAUCGUAUGUACCGAAUCGGGUUUGGGUUUGGGUUUGGGGAAAGUAUUAUGUUACGCCGUUCGGAUCUGCACUU	-0.637
UGCUGGAGUGGCAGAAGACUUUUGAGGAGAAGCUCACGCCGUUGCUGAGUGUGCGGGAGUCACUCUCAGAGGAAGAGGCCCAGAAGAUGG	-1.61
UUGGCUCGAGAGAUUGAAUCAAGCCCCCAGUACCGCCUACGGAUCGCCAUGGAGAACGACGAUGGGCGCACUGAAGAGGAGAAGCACAGU	-0.614
AGUCCUGUGCUACACAUCGUAUGUACCGAAUCGGGUUUUUGGGUUUUUGGGUUUUUGGAAAGUAUUAUGUUACGCCGUUCGGAUCUGCAC	-0.0222
GUCCUGUGCUACACAUCGUAUGUACCGAAUCGGGGAAAAAGGGGUUUGGGGAAAGGGGAAAGUAUUAUGUUACGCCGUUCGGAUCUGCAC	-1.22

Excerpt of the above (set 3):
Sequence	E-score
AACAAGCG	0.0747
AGATTCGG	0.00837
ACTAGTTA	0.245
ACTCCCTC	-0.299
ATTCCTTG	0.0306
ATAAGGTA	0.244
GGCACCTA	-0.232
CGATGTAA	0.105
CCGGATAG	-0.0985
